# Assay results from different studies.
# Parts stem from different laboratories: compare values within a part only.

# Series 1
# Target: Interferon regulatory factor 5, full length, phosphomimetic (IRF5, Homo sapiens, UniProt Q13568-2, residues 1-514, K96S/S451D/S453D/S456D/S462D)
# Method: protein-binding microarray
# Form: double-stranded DNA, one strand shown
# Matrix: in vitro
# Concentration: 250 nM
# Notes: 60-bp whole probe
# Added: salmon DNA 0.4 mg/ml
# Relative to: random background probes
# Reading: higher = stronger binding
# All sequences stand within: GCCTAGCAC … GTCTTGATTCGCTTGACGCTGCTG
Strand,log fluorescence [z-score]
TTAGCACTGAGTCTCGATTAGTGCTAG,0.553
GACGGTATCGGCTATCGGGACGTGCTA,2.95
GACGGACTACTACTGCTGACGTGCTAG,-0.179
TTAGGTGTCGGACTGGGTTAGTGCTAG,-0.513
AACGGTATCGGACTGGGGACGTGCTAG,1.24

# Series 2
# Target: Histone acetyltransferase KAT6A, both winged helices, GST fusion (KAT6A, Homo sapiens, UniProt Q92794, residues 1-181)
# Method: protein binding microarray
# Form: double-stranded DNA, one strand shown
# Matrix: in vitro
# Concentration: not given
# Notes: 8-mer, flanks averaged, mean of 2 arrays, mostly near background
# Relative to: not given
# Reading: higher = stronger binding
# Construct (chain): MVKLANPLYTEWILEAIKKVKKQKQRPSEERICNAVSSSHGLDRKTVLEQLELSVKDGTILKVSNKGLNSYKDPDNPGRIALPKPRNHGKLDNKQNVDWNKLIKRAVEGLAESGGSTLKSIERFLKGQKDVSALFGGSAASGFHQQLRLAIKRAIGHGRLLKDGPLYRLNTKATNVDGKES
Strand,E-score
CCTCACGA,-0.161
ACGCCTCT,-0.132
CAGAAAAA,-0.216
AGAACGGC,0.126

# Series 3
# Target: Phosphate system positive regulatory protein PHO4, full length, GST-tagged (PHO4, Saccharomyces cerevisiae, UniProt P07270, residues 1-312)
# Method: competition protein-binding microarray
# Form: double-stranded DNA, one strand shown
# Matrix: in vitro
# Concentration: 2 µM
# Notes: whole 60-bp probe, lowest competitor level
# Added: Cbf1 competitor, 0.05 µM
# Reading: higher = stronger binding
# All sequences stand within: … GTCTTGATTCGCTTGACGCTGCTG
# Target sequence (chain): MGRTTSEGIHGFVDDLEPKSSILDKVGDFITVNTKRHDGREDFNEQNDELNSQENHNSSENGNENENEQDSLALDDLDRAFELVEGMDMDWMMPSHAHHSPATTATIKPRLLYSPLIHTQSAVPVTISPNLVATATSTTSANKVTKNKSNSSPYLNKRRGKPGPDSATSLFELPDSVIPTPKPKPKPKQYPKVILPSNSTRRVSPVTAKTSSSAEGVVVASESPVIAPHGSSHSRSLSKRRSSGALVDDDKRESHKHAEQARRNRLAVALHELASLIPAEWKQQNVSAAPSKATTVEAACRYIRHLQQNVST
Strand,fluorescence intensity [a.u.]
GAAGCGTATAAAACACACGTGGATTGGGGGTGCTTT,17700
GTCTTGTCTCATTGAACCGTGGGTGTCCCCACTTCA,7300
AAAGCGGTAATTTGAATTGTGGGTGCAGATATCTAT,3890
GTTTCGTAAGTAGTGCGCGTGCAAATTTCGCCCGTT,9260
TCGCGCACTACTTTTTTCGTGGGTAACTTAGGTGAA,4690

# Further values, each from its own experiment
Molecule,target,assay,test system,conditions,scale,endpoint,value
"PhoQ, residues 284 288 289 292 302 303 SNGLAW","PhoP, residues 12 14 15 18 19 LHSVW (Escherichia coli, UniProt P23836)","Sort-seq, measured: YFP reporter",E. coli,"PhoQ-PhoP variant library, added: 10 µM Mg2+","relative to: high Mg2+ state, higher = stronger signaling",fold induction,8.14

# Some of these lines once more (series 1):
Strand,log fluorescence [z-score]
TTAGGTGTCGGACTGGGTTAGTGCTAG,-0.513
